Published values pooled from the literature.
Parts stem from different laboratories: compare values within a part only.

Study 1 — method: EMSA with sequencing; molecule type: double-stranded DNA, one strand shown; sample: in vitro; tested at: 10 and 20 nM; relative to: negative control set to 0; direction: higher = stronger binding
Target: Hepatocyte nuclear factor 3-alpha (Foxa1, Mus musculus, UniProt P35582, residues 1-468, full length assumed)
UniProt P35582, sequence (whole entry, looked up): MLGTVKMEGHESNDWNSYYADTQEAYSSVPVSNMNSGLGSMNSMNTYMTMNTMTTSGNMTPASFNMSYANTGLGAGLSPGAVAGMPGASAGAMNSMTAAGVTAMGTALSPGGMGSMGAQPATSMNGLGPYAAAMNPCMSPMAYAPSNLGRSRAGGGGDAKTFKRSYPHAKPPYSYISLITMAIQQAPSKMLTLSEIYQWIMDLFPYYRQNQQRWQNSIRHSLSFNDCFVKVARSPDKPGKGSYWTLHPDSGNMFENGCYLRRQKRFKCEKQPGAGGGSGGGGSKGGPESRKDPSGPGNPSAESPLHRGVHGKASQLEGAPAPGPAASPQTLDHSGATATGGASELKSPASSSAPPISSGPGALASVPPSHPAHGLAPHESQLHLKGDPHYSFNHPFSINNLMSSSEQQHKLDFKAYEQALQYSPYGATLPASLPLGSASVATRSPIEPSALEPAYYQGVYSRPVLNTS
Setting: whole designed probe, mean of two concentrations, ends assumed
Strand	normalised bound fraction [ratio]
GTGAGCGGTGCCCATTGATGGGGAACTCCTCCCCCTCCTACCAGGCAGGGCTGAGCCAGACTGGGGTTCCAAAGCCCTTCCTCCTTCTCGATCCAGAGATAAATATTTGTTTCTCCAGTGTAAATAGCCCTTCGTGTTTAATGAGGCAATCCTAGGGCCATTTCCTGGCACGGCTCAGGGCCTGGAGGTCTTTCTCGCTCTGGGAGGAACAGTCCTAGGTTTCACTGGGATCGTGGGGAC	0.194
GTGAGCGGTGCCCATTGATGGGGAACAATATTTCAAACACTACGTACCCCAACTGACATTTGAGTAGCAGTTAAGTTCTTGGAACGCTGCCATTTTGATCTGTTACGTAACAGCTCATTGTAATCTGGATGAAATAGGGCAGTTAAAAGACTAATGGTCAGTGAAATCTACAACAGGAATGGAAAGAATTTTCCCCTTAAAAATTTGGAAATCCTTATTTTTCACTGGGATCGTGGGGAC	-0.0194
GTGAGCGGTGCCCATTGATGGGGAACATCTTCCCCCTCTTCCTTGCCCCACCAGCTCACCTTCCCGGGTTATTTGCAGATAGGAAAATAAATAAAGCCGGCATTCGTTAACGCAGTTCACGCGCATACTGCTGTTTGCTCTGGATGAATCATGGTCCTTTGGCGACGCCAGGCTCCGGGAGAGCAAAGCACCGTGTCAGGGCCATGATCCGGGGTGGCCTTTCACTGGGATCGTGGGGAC	0.346
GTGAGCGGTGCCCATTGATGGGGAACATCTTCCCCCTCTTCCTTGCCCCACCAGCTCACCTTCCCGGGTTATTCGAAGATTGGAAAATAAATAAAGCCGGCATTCGTTAACCCTCTTCTGGCGCAAACTGCTGTTTGCTCTGGATGAATCATGGTCCTTTGGCGACGCCAGGCTCCGGGAGAGCAAAGCACCGTGTCAGGGCCATGATCCGGGGTGGCCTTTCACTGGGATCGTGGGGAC	0.302
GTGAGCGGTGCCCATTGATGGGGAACTACCATTCAAGAAACCTTTTTTTTTTCTTTGCGTCTGTGAGACATATGAGAAAATCAATAAATTTACTTTCTTGGAAAAATAAACACTTCCTATGTAATCTAACATAGACCTTTAGAGCAGTATAAATTGTTTGTGAAAATAGTTTAATTGCAGCAAACACACAGAAAGGATTAACTTATTTTCAGATTTGGTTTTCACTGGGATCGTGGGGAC	0.231
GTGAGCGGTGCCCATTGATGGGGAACTCCCTTTTAGAACATGGTGATTTCTCCCCATTTGATGGGCCCTTTTAGACAGCCAGCTCATGCCTTTTCTCCTGGTAAGGGTCTGAAGGTGATGTTTACTTAGATGATGATGAAGTCTGGACAAATGATTCCAAAGGCAAAGATGAATATTCTTCAGGATTTAATGTGGTCATTGAACTTGAAGAGTGGTCAATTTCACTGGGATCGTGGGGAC	0.412

Study 2 — method: protein-binding microarray; molecule type: double-stranded DNA, one strand shown; sample: in vitro; tested at: 940 nM top; setting: 60-bp whole probe; together with: salmon DNA 0.4 mg/ml; relative to: random background probes; direction: higher = stronger binding; shared flanks, not repeated: GCCTAGCAC … GTCTTGATTCGCTTGACGCTGCTG
Target: Interferon regulatory factor 5, full length, phosphomimetic (IRF5, Homo sapiens, UniProt Q13568-2, residues 1-514, S451D/S453D/S456D/S462D)
Strand	fitted relative affinity [z-score]
TCACCTCACAGTTTGTAACTGTGCTAG	0.096
TCAGATTTCCTTCACCCACTGTGCTAG	0.96
GACGGAATCCTTATCCTGACGTGCTAG	0.0594
TACGGTTTCGGTTCCGGGACGTGCTAG	12.7
TCAGCTTTCCTTCTTGAACTGTGCTAG	0.89
GACGATTTCAGTCTCAAGACGTGCTAG	0.602
GACGGAATCCTACTGCTGACGTGCTAG	-0.739
TTAGGACTGCTTATGCTTTAGTGCTAG	-0.236
TAGAATGTCCTTTCTCCATGGGTGCTA	0.175
TCAACTCTCTACATGGGACTGTGCTAG	0.62
GACGATATCGGGATTCGAGACGTGCTA	-0.236
TCAATTTTGAGACTCATACTGTGCTAG	0.0526
GACGATTTCGTGTATCGAGACGTGCTA	0.114
GACGGTTCCCTACTGCTGACGTGCTAG	0.111
GTCGATATCAGACTGGAGACGTGCTAG	-0.372
TTACATTTCAGTCTCGATTAGTGCTAG	4.92
GACGGTCTCGGTCTAGGGACGTGCTAG	4.07
TTAGGTTTCGGTCTCGGATAGTGCTAG	14.2

Study 3 — method: RNA Bind-n-Seq; molecule type: RNA; sample: in vitro; tested at: 365 nM; relative to: no-protein control; direction: higher = stronger binding
Target: RNA binding protein fox-1 homolog 2, RRM domain, GST-SBP tag (RBFOX2, Homo sapiens, UniProt O43251-10, residues 100-194)
Setting: natural RNA segment, single round, ends assumed
Construct (chain): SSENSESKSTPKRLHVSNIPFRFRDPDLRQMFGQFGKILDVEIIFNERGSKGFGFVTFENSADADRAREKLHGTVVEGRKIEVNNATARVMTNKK
Strand	RBNS enrichment (R)
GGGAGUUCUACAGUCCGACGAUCAUUAUUACAACCAUGUACAAAGGGACUCCACUCCACUGUCCCUGUACAAGGACUUUUGACAGUUUAGUGCUUAGUAACUAGUCUUAGUUUUCUUCCUUUUAGAAAAACUGUGGAAUUCUCGGGUGCCAA	0.37
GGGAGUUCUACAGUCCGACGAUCCUACUCUGUGGAUGAUUUCCAAACAUUCAAAGCCAAUAGCCUUGUUAUUAACAAGAUAUUUUGAGUACAAUAUGGCUCAUUGACUUUUCCAUUACAUCUGAGGAUUCCAGUGGAAUUCUCGGGUGCCAA	0.205
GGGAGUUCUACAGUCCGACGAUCGAGUAUUUUGUAAUUUUUUUGAAAUAUUUGUGGACAUAAAUAAAACCAAGCUACACUACAACCCUUGGUGUCUCCCGUGCACUGUCUCAUUCCUGGAGAGUGGGCGGGGAUGGAAUUCUCGGGUGCCAA	0.302
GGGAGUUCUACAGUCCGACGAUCUAAGACAGACUGAGGGCAUUGCAUUACAAUGGCCAGAAACUACACCCAUGAGUGCAACGACCAAGGUGAAGGACAGCCAGACAGGAAAGGUGACAAAAGCCACCCUGAGUUGGAAUUCUCGGGUGCCAA	0.386
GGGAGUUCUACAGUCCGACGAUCCUUUGGUGGCCCUCUACUCUAUUGUCCCACACCCUACAUUCUCUCCUCUGGACUCCCAAGGAGGCUGGUGCCAGGGAGAUGCCCUCACCCACCCCCAUUUGCACUGAGAAUGGAAUUCUCGGGUGCCAA	0.648
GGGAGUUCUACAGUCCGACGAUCUUGAGAAACACACAGACAACAACGGUGGUGAACACAUUUCCCUUUCUUGAUACCACCCAGAAAGUCUGCUACAUACCUGAGUUAGCCACUAGAUUGCCUGUCCCGACUCAUGGAAUUCUCGGGUGCCAA	0.997
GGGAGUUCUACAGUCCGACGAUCCCGGGCAAAUGACCCUGCGAAGCCACGGUGCAGCGCCCCCUGCUGGCGAGCAGCGGGCAGACCUCCAAGGACAGCCUCUAGCUGAGGUCUCAGUCACAUGAAGUGUGACAUGGAAUUCUCGGGUGCCAA	0.226
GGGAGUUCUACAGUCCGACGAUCCUGGACUUCGCCCCCAGGCCUAGGACCGCGGUGGGUGGAACCCUGCUACUGCCCCAACAGGGACUCCAAUCAAUCGGAGUUCUCCCCUUGCCGGAGCUGCCCUUCACCUUUGGAAUUCUCGGGUGCCAA	0.336
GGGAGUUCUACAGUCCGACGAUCCUGAUGAGUGUUGUAUAGAUGAUUUGAAUUGAUAAAAGUAUUAGGGAUGAGGUUUGUACUUUCCUGAACUUGAAUUUCAAACACUAACUGUAUCCUAUGAGUGACGUGUGUGGAAUUCUCGGGUGCCAA	1.1

Study 4 — method: protein-binding microarray; molecule type: double-stranded DNA, one strand shown; sample: in vitro; tested at: 0.8 µM; setting: whole 60-bp probe, no competitor; direction: higher = stronger binding
Target: Centromere-binding protein 1, full length, N-terminal tag (CBF1, Saccharomyces cerevisiae, UniProt P17106, residues 1-351)
UniProt P17106, sequence (whole entry, looked up): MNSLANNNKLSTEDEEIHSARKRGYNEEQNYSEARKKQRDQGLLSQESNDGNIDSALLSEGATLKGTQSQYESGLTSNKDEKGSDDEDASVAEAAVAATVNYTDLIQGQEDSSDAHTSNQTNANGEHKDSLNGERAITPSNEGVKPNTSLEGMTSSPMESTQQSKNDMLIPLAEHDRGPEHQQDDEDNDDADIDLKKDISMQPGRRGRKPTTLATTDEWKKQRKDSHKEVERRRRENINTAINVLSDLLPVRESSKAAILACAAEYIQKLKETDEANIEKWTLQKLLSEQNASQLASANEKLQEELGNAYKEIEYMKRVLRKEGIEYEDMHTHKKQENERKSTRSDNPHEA
Strand	fluorescence intensity [a.u.]
GAATCACACCGGCACCACCTTGATTCCACACTGTAGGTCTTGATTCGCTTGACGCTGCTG	503
CCTAACTACTATACTCAGGTGTAATAGCTTCGTACAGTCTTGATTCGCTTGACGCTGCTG	539
CTACTGTATGATTATCAGTTGAGTTGGTGAGATTTCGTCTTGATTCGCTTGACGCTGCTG	493
GAACAGGATTCAAATGGTGACGTTAAAAACATGTAGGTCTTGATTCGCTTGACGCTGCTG	538
TGTACGAAGCTATATAACCACGTTATAGTAGTTAGGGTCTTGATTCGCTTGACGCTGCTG	618
GAATTATGTATATGTGACGTGTATGTATTTGTATAGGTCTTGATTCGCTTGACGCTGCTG	588
GAAACCTTATCCGCTCACGCGCGTATTACTTCCTAGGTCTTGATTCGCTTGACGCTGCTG	568
CTAACCACGATATCGCACGCACACCAGGAAAGTTTCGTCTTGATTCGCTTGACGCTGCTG	536
CTATTTAACTAAACAATGGTGATGATATGTTAATTCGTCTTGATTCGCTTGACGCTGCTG	567
CCTAACTACTATAATAAGGTGATATAGCTTCGTACAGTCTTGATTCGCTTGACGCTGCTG	536
CTAAAATTTTCTGGTCTGATGTTCTTTACGTGTTTCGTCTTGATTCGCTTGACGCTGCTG	530
CTATTTCACAAAAAACATGTGATATGCTTTCAATTCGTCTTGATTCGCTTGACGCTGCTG	2290
CCTAACTACTATAATCACCTTTTATAGCTTCGTACAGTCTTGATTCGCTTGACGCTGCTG	534
GAAGGCTGTTGTTGTCACACGATTCGGACAATTTAGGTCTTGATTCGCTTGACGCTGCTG	597
CTATTATTAAATTACCACGTTTTCGCATAACATTTCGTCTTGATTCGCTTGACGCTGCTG	782
GAAAGATGTCGATGACGTGTGTAGCGTAAAAATTAGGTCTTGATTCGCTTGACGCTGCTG	562
CTACCATTTGTCAAGCACATGCTTAATCCAACATTCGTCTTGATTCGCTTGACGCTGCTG	961
